Results collected from several papers.
Lines come from different studies, so protocols differ. Values joined by “and” are separate records of one study, mostly repeats; a detail may differ. ± marks the error that the study gave.

Compound | cell line | assay | system | conditions | scale | quantity | result
Cc1cc2c(c(O)c1O)C(=O)c1c(O)cc(O)cc1C2=O | HepaRG co-cultured with HK-2 | MTT |  | 266.67 µM, 24 h | reference: untreated control | cell viability | 63.5 ± 12%
N=C(N)NCCC[C@H](NC(=O)[C@H](CCCNC(=N)N)NC(=O)[C@H](CCCNC(=N)N)NC(=O)[C@H](CCC(N)=O)NC(=O)[C@H](CCCNC(=N)N)NC(=O)[C@H](CCCNC(=N)N)NC(=O)[C@H](CCCCN)NC(=O)[C@H](CCCCN)NC(=O)[C@H](CCCNC(=N)N)NC(=O)CNC(=O)[C@H](Cc1ccc(O)cc1)NC(=O)CNC(=O)CNC(=O)CNC(=O)c1ccc2c(c1)C(=O)OC21c2ccc(O)cc2Oc2cc(O)ccc21)C(N)=O | hCMEC/D3 monolayers | BBB permeability, Transwell, item: CF-labelled compound | EGM-2 medium | concentration not given, 3 h, apical to basal | reference: fluorescence added apically | transport ratio | 13.9%
CC(=O)OC[C@H]1O[C@@H](Oc2cc(O)cc3cc4oc(C)cc(=O)c4c(O)c23)[C@H](O)[C@@H](O)[C@@H]1O | HK-2 co-cultured with HepaRG | MTT |  | 266.67 µM, 48 h | reference: untreated control | cell viability | 77.5 ± 2.94%
CC[C@H](C)[C@H](NC(=O)CNC(=O)[C@H](C)NC(=O)[C@@H](NC(=O)[C@@H](NC(=O)[C@@H](NC(=O)[C@H](CCCNC(=N)N)NC(=O)[C@@H](NC(=O)[C@@H](NC(=O)[C@@H](NC(=O)[C@@H]1CCCN1C(=O)[C@H](Cc1c[nH]c2ccccc12)NC(=O)[C@@H](NC(=O)[C@H](CCCNC(=N)N)NC(=O)[C@H](CCCCN)NC(=O)[C@@H](NC(=O)[C@@H](N)CCCNC(=N)N)[C@@H](C)CC)C(C)C)C(C)C)C(C)C)[C@@H](C)CC)[C@@H](C)O)C(C)C)C(C)C)C(=O)N[C@@H](CC(N)=O)C(=O)N[C@@H](CC(C)C)C(=O)N[C@@H](Cc1ccc(O)cc1)C(=O)N[C@@H](CCCNC(=N)N)C(=O)N[C@@H](C)C(=O)N[C@H](C(=O)N[C@@H](CCCCN)C(=O)N[C@@H](CCCNC(=N)N)C(=O)N[C@@H](CCCCN)C(=O)O)[C@@H](C)CC | rat erythrocytes | haemolysis |  | 1 h, 37 °C, 2% erythrocytes in PBS |  | HC50 | 2.42 log10 µg/mL
CC[C@H](C)[C@H](NC(=O)CN)C(=O)N[C@@H](CC(C)C)C(=O)N[C@@H](CC(=O)O)C(=O)N[C@@H](C)C(=O)N[C@H](C(=O)N[C@@H](CC(C)C)C(=O)N[C@@H](CC(=O)O)C(=O)N[C@@H](C)C(=O)N[C@H](C(=O)N[C@@H](CCCCN)C(=O)N[C@@H](C)C(=O)N[C@H](C(=O)N[C@@H](C)C(=O)N[C@@H](CCCCN)C(=O)N[C@@H](C)C(=O)N[C@H](C(=O)N[C@@H](CCCCN)C(=O)N[C@@H](C)C(=O)N[C@@H](CCCCN)C(=O)N[C@@H](C)C(=O)NCC(N)=O)[C@@H](C)CC)[C@@H](C)CC)[C@@H](C)CC)[C@@H](C)CC | sheep red blood cells |  |  | 256 µM, 1 h, 37 °C | reference: Triton X-100 | hemolysis | 92%
O=c1ccc2ccccc2o1 | NHEK | cell count |  | concentration not given, 24 h, XBP1 panel |  | chance response | 0.02%
CC(C)(c1ccc(O)cc1)c1ccc(O)cc1 | HepG2 spheroids, dissociated | annexin V-FITC/PI flow cytometry |  | 1 µM, 24 h |  | early apoptotic cells | 0.85 ± 0.44%
COc1ccc2c(c1OC)C(=O)c1c(cc(C)c(O)c1OC)C2=O | HepaRG co-cultured with HK-2 | MTT |  | 33.33 µM, 24 h | reference: untreated control | cell viability | 97 ± 9.15%
O=C(O)C(F)(F)C(F)(F)C(F)(F)C(F)(F)C(F)(F)F | hTERT-RPTEC-OAT1 |  |  | concentration not given, Transwell, basolateral-to-apical addition |  | LDH release | 19.2 mU/mL and 19.9 mU/mL and 15.1 mU/mL and 21.8 mU/mL

Excerpt of the above:
Compound | cell line | assay | system | conditions | scale | quantity | result
Cc1cc2c(c(O)c1O)C(=O)c1c(O)cc(O)cc1C2=O | HepaRG co-cultured with HK-2 | MTT |  | 266.67 µM, 24 h | reference: untreated control | cell viability | 63.5 ± 12%
